# Measured values gathered from unrelated publications.
# Each line is one published result; not all experiments were run side by side.
# Target: 3-phosphoinositide-dependent protein kinase 1 (PDPK1, Homo sapiens, UniProt O15530)
# Residues used in one study (O15530 1-556): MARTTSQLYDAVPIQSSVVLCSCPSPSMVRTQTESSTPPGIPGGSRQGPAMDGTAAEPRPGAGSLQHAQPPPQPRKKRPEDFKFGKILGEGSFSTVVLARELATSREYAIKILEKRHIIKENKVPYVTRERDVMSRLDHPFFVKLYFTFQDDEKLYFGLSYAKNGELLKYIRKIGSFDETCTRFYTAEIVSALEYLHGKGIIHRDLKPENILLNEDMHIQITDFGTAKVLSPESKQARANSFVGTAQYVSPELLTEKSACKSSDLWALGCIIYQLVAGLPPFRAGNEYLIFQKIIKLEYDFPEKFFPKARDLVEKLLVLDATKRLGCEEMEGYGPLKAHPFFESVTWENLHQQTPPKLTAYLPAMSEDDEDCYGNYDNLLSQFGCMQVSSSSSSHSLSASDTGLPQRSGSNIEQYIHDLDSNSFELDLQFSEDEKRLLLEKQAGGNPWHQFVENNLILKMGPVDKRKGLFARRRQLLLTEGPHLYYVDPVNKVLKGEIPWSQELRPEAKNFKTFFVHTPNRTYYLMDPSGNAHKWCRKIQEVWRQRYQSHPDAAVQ
SMILES,test,setting,scale,endpoint,result
O=C1NC(=O)c2c1c1cc(F)c[n+]3c1c1c2c2cc(O)ccc2[n]1[Ru-4]312([N]=C=S)[S+]3CC[S+]1CC[S+]2CC3 (centres unmarked),enzyme activity,"100 nM, human enzyme, with: 10 µM ATP",baseline: untreated,remaining activity,8%
CS(C)(=O)=Nc1ccc(-c2ccc(-c3nc4cc(O[C@@H]5CO[C@H]6[C@@H]5OC[C@H]6O)[nH]c4cc3F)cc2)cc1,"enzyme activity, inhibitor",10 µM,,inhibition,-12%
C[C@H](NCc1ccc(-c2ccc(C(F)(F)F)cc2)cc1)C(N)=O,"cell-free assay, competition with immobilised ligand",1 µM,,inhibition,2%
N[C@H](C(=O)N1CCCC1)C1CCN(c2nccc3c(-c4ncc(Cl)cc4Cl)cccc23)CC1,"kinase activity, inhibitor","10 µM, with: ATP 1 mM",,inhibition,0.7%
CN(C)[C@H]1C[C@@]23CC[C@@]4(O2)C(=CC[C@]2(C)[C@@H](c5ccc6ccncc6c5)CC[C@H]24)C=C3[C@@H](O)[C@@H]1O,"ATP probe labelling, inhibitor, KiNativ profiling",0.1 µM,,inhibition,-7.4%
CC(C)[C@H]1NC(=O)C[C@H]2/C=C/CCSSC[C@@H](NC1=O)C(=O)N[C@H](Cc1cccc3ccccc13)C(=O)NCC(=O)O2,"enzyme activity, inhibitor",10 µM,,inhibition,-3.7%
CCOC(=O)[C@@H]1Cc2c(cc([N+](=O)[O-])cc2[N+](=O)[O-])[C@H](O)[C@]12C(=O)Nc1ccc(Br)cc12,"binding, competition with immobilised ligand",0.1 µM,,remaining binding,48%
Nc1ccc(/C=C/C(=O)N2CCc3c(oc4c(-c5ccc(F)cc5)cc(-c5ccc(C(=O)N6CCC(F)(F)CC6)cn5)cc34)C2)cn1,"binding, competition with immobilised ligand",1 µM,,remaining binding,96%

# Excerpt of the above:
SMILES,test,setting,scale,endpoint,result
CCOC(=O)[C@@H]1Cc2c(cc([N+](=O)[O-])cc2[N+](=O)[O-])[C@H](O)[C@]12C(=O)Nc1ccc(Br)cc12,"binding, competition with immobilised ligand",0.1 µM,,remaining binding,48%
